Assay results gathered from unrelated publications.
Lines come from different studies, so protocols differ. Numbers after ± are the reported error.

`COc1cccc2c1C(=O)c1c(O)c3c(c(O)c1C2=O)C[C@@](O)(C(C)=O)C[C@@H]3O[C@H]1C[C@H](N)[C@H](O)[C@H](C)O1` gave an elimination half-life of 36.6 ± 0.6 min (BALB/c mouse, plasma; intravenous, 10 mg/kg).
`O=C(c1cccnc1-c1ccncc1)N1CCC(O)(Cc2ccccc2)CC1` gave a Vd/F of 732 L (human, plasma; oral, 300 mg, multiple doses, once daily, healthy volunteers).
For `CCOC(=O)c1ccc(O)cc1`, the EC20 was over 400 µM (mitochondrial swelling; BALB/cByJ female mouse liver mitochondria; 30 min, with: succinate + rotenone; baseline: CaCl2 maximal swelling).
The Cmax mean of `Cn1c(-c2ccc(C(N)=O)cc2F)nnc1C(C)(C)Oc1c(F)cc(Cl)cc1F` is reported as 673 ng/mL (young Japanese subjects, plasma; oral, 50 mg single dose, day 1).
`C[C@]12CC[C@@H]3c4ccc(O)cc4CC[C@H]3[C@@H]1C[C@@H](O)[C@@H]2O`: “minimum serum concentration” 0 ng/mL (GC-MS; breast cancer women on NSAI, serum; vaginal, 0.03 mg, 4 h, day 0).
For `Oc1cc(O)cc(O)c1`, the EC20 was over 400 µM (cytochrome c release, ELISA; BALB/cByJ female mouse liver mitochondria; 30 min; baseline: alamethicin maximal release).
`NC(=O)OCC(COC(N)=O)c1ccccc1`: ALP “decreased” (Sprague-Dawley rat, male, blood; oral, 1920 mg/kg, 6 h).
For `CS(=O)(=O)n1cc2c(n1)CN([C@H]1CO[C@H](c3cc(F)ccc3F)[C@@H](N)C1)C2`, the Ctrough was 3.68 nM (healthy Japanese men, plasma; oral, 1 mg once weekly, day 1).
`CC[C@H](C)[C@H](NC(=O)[C@H](CCCNC(=N)N)NC(=O)[C@@H](NC(=O)[C@H](CO)NC(=O)[C@@H](NC(=O)[C@H](CCC(N)=O)NC(=O)[C@H](CS)NC(=O)[C@H](CCCCN)NC(=O)[C@@H](N)CCCNC(=N)N)[C@@H](C)CC)C(C)C)C(=O)N[C@@H](CCCNC(=N)N)C(=O)N[C@@H](CC(N)=O)C(=O)N[C@@H](CCCNC(=N)N)C(=O)N[C@@H](CCCNC(=N)N)C(=O)N[C@@H](C)C(=O)N[C@@H](CC(N)=O)C(=O)N[C@H](C(=O)N[C@@H](CCCCN)C(=O)N[C@H](C(=O)N[C@@H](CO)C(=O)N[C@@H](CS)C(=O)N[C@@H](CC(N)=O)C(=O)O)[C@@H](C)CC)[C@@H](C)CC`: “single disulfide form” 66% (LC-MS; PBS; 0.1 mg/mL).
With `O=C(Cc1cccc(OC(F)(F)F)c1)Nc1ccc(CCCCc2nnc(NC(=O)Cc3ccccn3)s2)nn1` the AUC(0-8h) was 7610 ng·h/mL (non-compartmental analysis; human; oral, 600 mg twice daily, fed, steady state, cycle 1 day 15).
Under “log intrinsic permeability”, `CC(C)(C)NC(=O)[C@@H]1C[C@@H]2CCCC[C@@H]2CN1C[C@@H](O)[C@H](Cc1ccccc1)NC(=O)[C@H](CC(N)=O)NC(=O)c1ccc2ccccc2n1` is recorded as -5.22 (in situ brain perfusion; rat; no efflux inhibition).
For `CN[C@H]1C(=O)N[C@@H]2Cc3ccc(cc3)Oc3cc4cc(c3O[C@@H]3O[C@H](C(=O)O)[C@@H](O)[C@H](O)[C@H]3NC(=O)CCCCCCCCC(C)C)Oc3ccc(cc3Cl)[C@@H](O)[C@@H]3NC(=O)[C@H](NC(=O)[C@@H]4NC(=O)[C@@H](NC2=O)c2cc(cc(O)c2Cl)Oc2cc1ccc2O)c1ccc(O)c(c1)-c1c(O[C@H]2O[C@H](CO)[C@@H](O)[C@H](O)[C@@H]2O)cc(O)cc1[C@@H](C(=O)NCCCN(C)C)NC3=O`, the non-renal clearance was 0.031 L/h (population PK model; human patients; intravenous, 1500 mg).
`Cn1c(=O)c2c([nH]c(=O)n2C)n(C)c1=O` — result for “free concentration ratio”: 5 (human hemodialysis patients, plasma ultrafiltrate; pre-treatment; baseline: hemodialysis over normal subjects).
With `C[C@@H]1C[C@H]2[C@@H]3CCC4=CC(=O)C=C[C@]4(C)[C@@]3(F)[C@@H](O)C[C@]2(C)[C@@]1(O)C(=O)CO` the EC20 was over 200 µM (cytochrome c release, ELISA; BALB/cByJ female mouse liver mitochondria; 30 min; baseline: alamethicin maximal release).
Under ellipticity, `LEQKAASCHNSYIVLAIENSFMTSFSK` is recorded as “decreased” (peptide, acetonitrile/water 50:50; 200 µg/mL, 25 °C, 205-225 nm; baseline: native peptide).
`COc1ccc(OCC2=C(C)C(=O)c3ccccc3C2=O)cc1C(F)(F)F`: “cathodic peak potential” -0.62 V (cyclic voltammetry; DMSO; first wave, vs Ag/AgCl).

A few entries again:
For `CCOC(=O)c1ccc(O)cc1`, the EC20 was over 400 µM (mitochondrial swelling; BALB/cByJ female mouse liver mitochondria; 30 min, with: succinate + rotenone; baseline: CaCl2 maximal swelling).
`C[C@]12CC[C@@H]3c4ccc(O)cc4CC[C@H]3[C@@H]1C[C@@H](O)[C@@H]2O`: “minimum serum concentration” 0 ng/mL (GC-MS; breast cancer women on NSAI, serum; vaginal, 0.03 mg, 4 h, day 0).
